{"data": "Results from different studies", "note": "Lines come from different studies, so protocols differ."}
{"Structure (SMILES)": "CC[C@H](C)[C@H](NC(=O)[C@@H](NC(=O)CN)C(C)C)C(=O)N[C@@H](Cc1ccccc1)C(=O)N[C@@H](CC(N)=O)C(=O)N[C@@H](C)C(=O)N[C@@H](CC(C)C)C(=O)N[C@@H](CCCCN)C(=O)NCC(=O)N[C@H](C(=O)N[C@@H](C)C(=O)N[C@@H](CCCCN)C(=O)N[C@H](C(=O)N[C@H](C(=O)N[C@@H](C)C(=O)N[C@@H](C)C(=O)N[C@@H](CCC(N)=O)C(=O)N[C@@H](CC(C)C)C(=O)N[C@@H](CC(C)C)C(=O)N[C@@H](CCCCN)C(=O)N[C@@H](CCCCN)C(=O)N[C@@H](C)C(=O)N[C@@H](CCCNC(=N)N)C(=O)N[C@H]1CSSC[C@@H](C(=O)O)NC(=O)[C@H](CO)NC(=O)[C@H](CCCCN)NC(=O)[C@H](CC(=O)O)NC(=O)[C@H](CC(C)C)NC(=O)[C@H](CCCCN)NC1=O)C(C)C)[C@@H](C)O)C(C)C", "organism": "Staphylococcus aureus", "test system": "MRSA NCTC 12493, PBS", "MIC": "2 µM"}
{"Structure (SMILES)": "CN(C)CCCNC(=O)[C@@H]1NC(=O)[C@@H]2Cc3ccc(cc3)Oc3cc4cc(c3O)-c3ccc5c(c[nH]c5c3)C[C@@H](NC(=O)C(NC(=O)CCCCCN)c3ccc(O)cc3)C(=O)N[C@H](c3ccc(O)cc3)C(=O)N[C@H]4C(=O)N[C@@H](C(=O)N2C)c2ccc(cc2)Oc2cc1ccc2O (some centres unmarked)", "organism": "Enterococcus faecium", "test system": "WCC 0500, VRE-A", "MIC": "0.5 to 1 mg/L"}
{"Structure (SMILES)": "COc1ccc(C2=[N+]([O-])c3ccccc3N3CCCN=C23)cc1", "organism": "Parvimonas micra", "test system": "ATCC 3870", "MIC": "0.25 mg/L"}
{"Structure (SMILES)": "CO[C@H]1/C=C/O[C@@]2(C)Oc3c(C)c(O)c4c(c3C2=O)C2=NC3(CCN(CC(C)C)CC3)NC2=C(NC(=O)/C(C)=C\\C=C\\[C@H](C)[C@H](O)[C@@H](C)[C@@H](O)[C@@H](C)[C@H](OC(=O)c2ccccc2Cl)[C@@H]1C)C4=O", "organism": "Mycobacteroides abscessus", "test system": "ATCC 19977 arr deletion", "setting": "90% growth inhibition", "MIC": "0.049 µM"}
{"Structure (SMILES)": "CC[C@H](C)[C@H](NC(=O)[C@H](CCCCN)NC(=O)CNC(=O)[C@H](CC(C)C)NC(=O)[C@H](CC(C)C)NC(=O)[C@H](Cc1c[nH]cn1)NC(=O)[C@H](Cc1ccccc1)NC(=O)[C@@H](N)C(C)C)C(=O)N[C@H](C(=O)N[C@@H](Cc1c[nH]cn1)C(=O)N[C@@H](Cc1c[nH]cn1)C(=O)N[C@H](C(=O)NCC(=O)N[C@@H](CC(N)=O)C(=O)N[C@@H](Cc1ccccc1)C(=O)N[C@H](C(=O)N[C@@H](Cc1ccc(O)c(O)c1)C(=O)NCC(=O)N[C@@H](Cc1ccccc1)C(=O)N[C@@H](CO)C(=O)N[C@@H](Cc1c[nH]cn1)C(=O)N[C@H](C(=O)N[C@@H](Cc1ccccc1)C(N)=O)C(C)C)C(C)C)C(C)C)[C@@H](C)CC", "organism": "Enterobacter cloacae", "assay": "broth microdilution", "test system": "AR 0136", "setting": "pH 5.5", "MIC": "16 µM"}
{"Structure (SMILES)": "CC[C@H](C)[C@H](NC(=O)[C@H](CO)NC(=O)[C@H](CO)NC(=O)[C@H](Cc1ccccc1)NC(=O)CN)C(=O)N[C@@H](Cc1ccccc1)C(=O)N[C@@H](CCCNC(=N)N)C(=O)NCC(=O)N[C@H](C(=O)N[C@@H](C)C(=O)N[C@@H](CCCCN)C(N)=O)C(C)C", "organism": "Escherichia coli", "test system": "ATCC 8739", "setting": "with: 8 mM ZnCl2", "MIC": "> 128 µM"}
{"Structure (SMILES)": "CN1C(=O)[C@@H]2NC(=O)[C@@H]3NC(=O)[C@@H](c4ccc(O)cc4)NC(=O)[C@H](NC(=O)C(N)c4ccc(O)cc4)Cc4c[nH]c5cc(ccc45)-c4cc3cc(c4O)Oc3ccc(cc3)C[C@H]1C(=O)N[C@@H](C(=O)O)c1ccc(O)c(c1)Oc1ccc2cc1 (some centres unmarked)", "organism": "Enterococcus faecium", "test system": "WCC 0506, VRE-A", "MIC": "4 to 8 mg/L"}
{"Structure (SMILES)": "CCCCCCCCCCCCCCCCCCSCC1OC(OC2C(N)CC(N)C(OC3OC(CN)C(O)CC3N)C2O)C(O)C(N)C1O (centres unmarked)", "organism": "Shigella", "test system": "clinical isolate", "MIC": "> 150 mg/L"}
{"Structure (SMILES)": "[O-][N+]1=C(c2ccsc2)C2=NCCCN2c2ccccc21", "organism": "Parvimonas micra", "test system": "ATCC 3870", "MIC": "≤ 0.06 mg/L"}
{"Structure (SMILES)": "CN[C@@H]1[C@H](O)[C@H](NC)[C@H]2O[C@]3(O)[C@H](O[C@@H]2[C@H]1O)O[C@H](C)C[C@@]3(O)CNCCC1CCOCC1", "organism": "Mycobacteroides abscessus", "test system": "ATCC 19977 ∆tap", "setting": "120 h", "MIC": "32 mg/L"}
{"Structure (SMILES)": "CCCCc1ccc(-c2nc(C)c(C(C)=NNC(=N)N)s2)cc1", "organism": "Staphylococcus aureus", "test system": "VRS4 VRSA", "MIC": "0.7 mg/L"}
{"note": "Repeated from above:"}
{"Structure (SMILES)": "CCCCCCCCCCCCCCCCCCSCC1OC(OC2C(N)CC(N)C(OC3OC(CN)C(O)CC3N)C2O)C(O)C(N)C1O (centres unmarked)", "organism": "Shigella", "test system": "clinical isolate", "MIC": "> 150 mg/L"}
